Results from different studies.
A part holds a random share of what one study measured. Changes are numbered by the printed parent chain.
UniProt P36896, sequence (whole entry, looked up): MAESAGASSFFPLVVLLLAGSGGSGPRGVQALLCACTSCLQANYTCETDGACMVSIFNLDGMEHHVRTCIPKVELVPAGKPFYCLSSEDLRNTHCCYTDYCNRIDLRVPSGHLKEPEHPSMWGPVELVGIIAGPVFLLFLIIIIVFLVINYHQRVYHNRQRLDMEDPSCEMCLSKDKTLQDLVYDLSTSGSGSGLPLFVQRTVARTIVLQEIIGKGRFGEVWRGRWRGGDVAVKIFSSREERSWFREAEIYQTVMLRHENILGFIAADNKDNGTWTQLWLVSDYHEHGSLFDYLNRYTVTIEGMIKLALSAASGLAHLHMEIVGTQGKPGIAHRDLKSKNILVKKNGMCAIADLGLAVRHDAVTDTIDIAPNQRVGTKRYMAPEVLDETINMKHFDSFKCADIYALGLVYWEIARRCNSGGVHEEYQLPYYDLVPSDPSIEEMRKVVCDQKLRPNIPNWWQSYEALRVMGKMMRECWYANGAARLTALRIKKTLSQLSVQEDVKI
UniProt Q9HC98, sequence (whole entry, looked up): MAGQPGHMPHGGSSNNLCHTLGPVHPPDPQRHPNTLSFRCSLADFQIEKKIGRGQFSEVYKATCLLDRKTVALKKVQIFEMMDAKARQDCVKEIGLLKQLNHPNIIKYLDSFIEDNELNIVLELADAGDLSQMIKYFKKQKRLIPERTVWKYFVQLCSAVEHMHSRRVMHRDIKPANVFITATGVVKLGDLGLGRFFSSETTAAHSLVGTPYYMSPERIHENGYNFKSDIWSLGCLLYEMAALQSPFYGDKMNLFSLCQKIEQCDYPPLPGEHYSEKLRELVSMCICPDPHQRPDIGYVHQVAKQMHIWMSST
UniProt P27361, sequence (whole entry, looked up): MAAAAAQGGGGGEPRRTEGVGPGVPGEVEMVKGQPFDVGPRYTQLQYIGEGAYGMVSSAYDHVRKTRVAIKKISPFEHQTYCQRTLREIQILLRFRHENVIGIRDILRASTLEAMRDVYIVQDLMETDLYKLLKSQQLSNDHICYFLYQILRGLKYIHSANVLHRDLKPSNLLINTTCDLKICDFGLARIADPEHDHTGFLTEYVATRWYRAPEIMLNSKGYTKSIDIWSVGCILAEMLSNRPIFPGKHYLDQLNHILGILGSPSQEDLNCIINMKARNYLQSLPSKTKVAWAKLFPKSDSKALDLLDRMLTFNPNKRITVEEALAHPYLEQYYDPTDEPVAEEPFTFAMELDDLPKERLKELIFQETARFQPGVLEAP
UniProt Q15349, sequence (whole entry, looked up): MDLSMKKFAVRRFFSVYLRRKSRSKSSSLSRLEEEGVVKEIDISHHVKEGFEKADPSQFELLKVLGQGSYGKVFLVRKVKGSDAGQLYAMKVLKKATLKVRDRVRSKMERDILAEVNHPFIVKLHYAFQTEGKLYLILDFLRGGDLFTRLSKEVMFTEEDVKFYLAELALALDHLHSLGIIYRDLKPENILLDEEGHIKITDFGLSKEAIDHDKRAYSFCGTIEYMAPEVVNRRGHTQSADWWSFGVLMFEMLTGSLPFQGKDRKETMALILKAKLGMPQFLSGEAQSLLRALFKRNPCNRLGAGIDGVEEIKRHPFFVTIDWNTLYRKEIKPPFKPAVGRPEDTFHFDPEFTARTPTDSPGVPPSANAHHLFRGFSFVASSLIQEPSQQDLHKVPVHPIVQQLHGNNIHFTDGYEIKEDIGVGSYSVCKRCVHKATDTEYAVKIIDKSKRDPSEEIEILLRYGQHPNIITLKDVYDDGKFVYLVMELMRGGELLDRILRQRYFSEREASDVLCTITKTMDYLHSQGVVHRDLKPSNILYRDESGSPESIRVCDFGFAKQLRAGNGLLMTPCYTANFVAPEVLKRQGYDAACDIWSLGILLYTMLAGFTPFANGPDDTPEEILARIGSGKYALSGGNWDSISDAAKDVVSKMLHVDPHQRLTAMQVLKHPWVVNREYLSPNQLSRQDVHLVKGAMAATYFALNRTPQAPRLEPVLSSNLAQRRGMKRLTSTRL
UniProt P22607, sequence (whole entry, looked up): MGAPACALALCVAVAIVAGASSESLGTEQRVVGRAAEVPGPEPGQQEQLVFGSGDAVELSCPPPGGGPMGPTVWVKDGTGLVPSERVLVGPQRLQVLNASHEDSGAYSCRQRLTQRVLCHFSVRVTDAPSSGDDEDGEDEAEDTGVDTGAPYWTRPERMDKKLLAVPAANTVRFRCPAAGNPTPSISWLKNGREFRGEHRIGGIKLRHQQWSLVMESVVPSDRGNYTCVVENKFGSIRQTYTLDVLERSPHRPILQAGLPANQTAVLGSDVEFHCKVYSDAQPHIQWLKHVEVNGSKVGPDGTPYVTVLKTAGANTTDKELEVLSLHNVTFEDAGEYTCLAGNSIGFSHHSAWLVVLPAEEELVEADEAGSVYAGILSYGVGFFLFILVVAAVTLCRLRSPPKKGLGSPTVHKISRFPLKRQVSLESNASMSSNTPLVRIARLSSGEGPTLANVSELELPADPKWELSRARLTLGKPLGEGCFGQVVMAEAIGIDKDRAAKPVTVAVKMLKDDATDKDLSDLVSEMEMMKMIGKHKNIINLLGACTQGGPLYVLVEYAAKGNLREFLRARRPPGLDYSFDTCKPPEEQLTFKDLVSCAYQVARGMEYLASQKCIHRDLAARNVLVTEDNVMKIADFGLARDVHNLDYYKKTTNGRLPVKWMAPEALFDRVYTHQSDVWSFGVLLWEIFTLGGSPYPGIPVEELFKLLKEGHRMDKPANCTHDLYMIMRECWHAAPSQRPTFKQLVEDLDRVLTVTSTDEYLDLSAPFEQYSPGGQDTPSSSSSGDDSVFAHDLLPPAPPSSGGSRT
UniProt P52333, sequence (whole entry, looked up): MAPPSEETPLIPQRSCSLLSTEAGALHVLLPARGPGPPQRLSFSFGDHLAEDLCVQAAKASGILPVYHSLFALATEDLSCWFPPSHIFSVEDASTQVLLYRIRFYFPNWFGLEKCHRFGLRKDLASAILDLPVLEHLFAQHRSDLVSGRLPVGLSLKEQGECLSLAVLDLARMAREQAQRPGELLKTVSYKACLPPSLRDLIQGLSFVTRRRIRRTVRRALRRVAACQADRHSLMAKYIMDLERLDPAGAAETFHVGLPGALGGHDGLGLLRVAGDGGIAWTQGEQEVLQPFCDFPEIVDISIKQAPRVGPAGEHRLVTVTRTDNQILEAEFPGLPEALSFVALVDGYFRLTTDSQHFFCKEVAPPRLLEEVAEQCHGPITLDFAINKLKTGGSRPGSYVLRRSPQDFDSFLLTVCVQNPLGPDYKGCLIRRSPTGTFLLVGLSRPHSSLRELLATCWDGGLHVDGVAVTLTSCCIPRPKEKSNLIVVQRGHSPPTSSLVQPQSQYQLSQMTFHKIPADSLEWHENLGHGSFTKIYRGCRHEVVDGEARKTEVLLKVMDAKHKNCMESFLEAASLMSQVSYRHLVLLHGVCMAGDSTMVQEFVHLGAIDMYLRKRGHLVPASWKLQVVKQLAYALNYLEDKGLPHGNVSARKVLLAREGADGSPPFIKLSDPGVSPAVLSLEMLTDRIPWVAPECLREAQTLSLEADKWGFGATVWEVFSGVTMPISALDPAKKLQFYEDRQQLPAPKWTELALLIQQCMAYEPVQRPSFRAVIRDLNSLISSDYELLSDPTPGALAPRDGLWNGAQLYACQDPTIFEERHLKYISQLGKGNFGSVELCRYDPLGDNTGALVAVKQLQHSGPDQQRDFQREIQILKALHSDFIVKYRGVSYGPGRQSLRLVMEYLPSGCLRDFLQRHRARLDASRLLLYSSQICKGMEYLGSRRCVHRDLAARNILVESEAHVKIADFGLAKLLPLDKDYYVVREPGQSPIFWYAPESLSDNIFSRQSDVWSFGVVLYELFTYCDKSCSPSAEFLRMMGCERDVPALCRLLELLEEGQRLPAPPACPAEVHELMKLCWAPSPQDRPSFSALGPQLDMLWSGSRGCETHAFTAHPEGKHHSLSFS
UniProt P57059, sequence (whole entry, looked up): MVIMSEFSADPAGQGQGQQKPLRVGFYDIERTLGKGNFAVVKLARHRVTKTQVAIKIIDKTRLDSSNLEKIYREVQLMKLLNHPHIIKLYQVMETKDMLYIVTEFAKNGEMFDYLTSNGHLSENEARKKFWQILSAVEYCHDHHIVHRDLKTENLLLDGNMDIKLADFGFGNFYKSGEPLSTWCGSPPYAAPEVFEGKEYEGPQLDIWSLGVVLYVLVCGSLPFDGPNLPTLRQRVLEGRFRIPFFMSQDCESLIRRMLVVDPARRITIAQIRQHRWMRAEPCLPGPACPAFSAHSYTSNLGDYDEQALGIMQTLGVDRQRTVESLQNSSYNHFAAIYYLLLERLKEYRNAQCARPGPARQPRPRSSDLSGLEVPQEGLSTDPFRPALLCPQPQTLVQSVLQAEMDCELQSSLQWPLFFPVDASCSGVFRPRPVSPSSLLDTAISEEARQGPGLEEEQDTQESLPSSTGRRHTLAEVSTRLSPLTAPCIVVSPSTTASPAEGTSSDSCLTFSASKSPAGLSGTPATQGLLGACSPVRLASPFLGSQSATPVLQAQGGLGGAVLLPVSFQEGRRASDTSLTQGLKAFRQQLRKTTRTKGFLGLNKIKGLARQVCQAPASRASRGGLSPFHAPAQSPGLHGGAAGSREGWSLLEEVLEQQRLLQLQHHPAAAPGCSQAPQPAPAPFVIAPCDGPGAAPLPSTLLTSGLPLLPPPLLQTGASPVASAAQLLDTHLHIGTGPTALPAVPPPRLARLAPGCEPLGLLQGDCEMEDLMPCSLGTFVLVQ

Series 1
Structure (SMILES): CC#CC(=O)Nc1cc2c(Nc3ccc(F)c(Cl)c3)ncnc2cn1
Observed: enzyme activity
Action: inhibitor
Concentration: 0.5 µM
Relative to: control
| target | remaining activity [%] |
| --- | --- |
| MAPK3 (Homo sapiens, UniProt P27361) | 100 |
| NEK6 (Homo sapiens, UniProt Q9HC98) | 97.5 |
| FGFR3 (Homo sapiens, UniProt P22607) | 108 |
| MAP3K5 (Homo sapiens, UniProt Q99683) | 98.9 |
| ACVR1B (Homo sapiens, UniProt P36896) | 104 |
| MAP2K2 (Homo sapiens, UniProt P36507) | 106 |
| FRK (Homo sapiens, UniProt P42685) | 102 |
| EPHA3 (Homo sapiens, UniProt P29320) | 99.8 |
| NEK1 (Homo sapiens, UniProt Q96PY6) | 105 |
| MST1R (Homo sapiens, UniProt Q04912) | 104 |
| ARAF (Homo sapiens, UniProt P10398) | 74.1 |
| MAP3K14 (Homo sapiens, UniProt Q99558) | 80.4 |
| RPS6KA2 (Homo sapiens, UniProt Q15349) | 105 |

Series 2
Target: Fragile X messenger ribonucleoprotein 1, C-terminal low-complexity region (Fmr1, Mus musculus, UniProt P35922)
Technique: RNA Bind-n-Seq
Molecule type: RNA
Sample: in vitro
Concentration: 200 nM
Notes: whole 134-nt RNA, ends assumed
With: 150 mM KCl
Relative to: input library
Reading: higher = stronger binding
All sequences stand within: GGGAGUUCUACAGUCCGACGAUC … UGGAAUUCUCGGGUGUCAAGG
| Oligonucleotide | log2 enrichment |
| --- | --- |
| UGUGCUACACAUCGUAUGUACCGAAUCGGGGUUUUUUUGGGGAAAAAAAGGGGUUUUUGGGGAAAGUAUUAUGUUACGCCGUUCGGAUCU | 0.0844 |
| CAAGUCCUGUGCUACACAUCGUAUGUACCGAAUCGGGUUUUUGGGUUUGGGAGGGAAAGUAUUAUGUUACGCCGUUCGGAUCUGCACUUC | 1.05 |
| UCAAGUCCUGUGCUACACAUCGUAUGUACCGAAUCGGUUUGGGUUUGGGGUUUGGAAAGUAUUAUGUUACGCCGUUCGGAUCUGCACUUC | -0.429 |
| UCAAGUCCUGUGCUACACAUCGUAUGUACCGAAUCGGUUUUGGUUUUGGUUUUGGAAAGUAUUAUGUUACGCCGUUCGGAUCUGCACUUC | -0.771 |
| CAAGUCCUGUGCUACACAUCGUAUGUACCGAAUCGGGUUUUGGUUUUGGGUUUUGGAAAGUAUUAUGUUACGCCGUUCGGAUCUGCACUU | -0.765 |
| AGUCCUGUGCUACACAUCGUAUGUACCGAAUCGGGGUUUUGGGGUUUUGGUUUUGGGGAAAGUAUUAUGUUACGCCGUUCGGAUCUGCAC | 0.386 |
| UCAAGUCCUGUGCUACACAUCGUAUGUACCGAAUCGGGAAGGGGAAGGGAAGGGAAAGUAUUAUGUUACGCCGUUCGGAUCUGCACUUCC | 0.866 |
| UCAAGUCCUGUGCUACACAUCGUAUGUACCGAAUCGGGUUUGGGUUUGGUUUGGGAAAGUAUUAUGUUACGCCGUUCGGAUCUGCACUUC | -0.183 |

Series 3
SMILES: C[C@H](c1ccc(F)cc1)N(Cc1cccc(C(=O)O)c1)C(=O)c1cnc2ccccc2c1
Concentration: 1 µM
| target | observed | technique | remaining binding [%] |
| --- | --- | --- | --- |
| DDR2 (Homo sapiens, UniProt Q16832) | cell-free assay | competition with immobilised ligand | 96 |
| SIK1 (Homo sapiens, UniProt P57059) | – | competition binding | 90 |
| Tyrosine-protein kinase JAK3, JH1 (JAK3, Homo sapiens, UniProt P52333) | cell-free assay | competition with immobilised ligand | 100 |
| MKNK1 (Homo sapiens, UniProt Q9BUB5) | cell-free assay | competition with immobilised ligand | 100 |
| RIOK3 (Homo sapiens, UniProt O14730) | cell-free assay | competition with immobilised ligand | 86 |

Series 4
Target: ABI1, truncated, D143A, DHFR fusion (Arabidopsis thaliana)
Technique: DHFR PCA, deep sequencing
Sample: yeast
Notes: methotrexate growth selection, single substitutions
With: (+)-ABA 4.8 µM
Relative to: wild-type fitted maximum
Reading: higher = stronger binding
Parent: PYL1, truncated, DHFR fusion (Arabidopsis thaliana); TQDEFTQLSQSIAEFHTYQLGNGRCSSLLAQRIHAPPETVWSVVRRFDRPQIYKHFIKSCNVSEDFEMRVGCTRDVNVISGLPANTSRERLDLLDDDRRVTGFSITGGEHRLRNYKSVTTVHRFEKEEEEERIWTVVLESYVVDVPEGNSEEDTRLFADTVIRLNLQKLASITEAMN; partner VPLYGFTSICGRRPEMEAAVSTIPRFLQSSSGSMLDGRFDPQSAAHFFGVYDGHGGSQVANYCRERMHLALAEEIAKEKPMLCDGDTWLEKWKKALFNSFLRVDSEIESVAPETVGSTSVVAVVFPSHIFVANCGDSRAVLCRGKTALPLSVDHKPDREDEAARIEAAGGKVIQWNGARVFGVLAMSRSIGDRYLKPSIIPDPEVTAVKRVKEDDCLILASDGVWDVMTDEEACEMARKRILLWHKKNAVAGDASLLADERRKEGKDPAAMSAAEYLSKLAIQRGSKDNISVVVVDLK
| Change | relative binding score |
| --- | --- |
| E89V | 3.25% |
| S26N | 41.2% |
| E109K | 43.2% |
| F5P | 46.2% |
| E131Y | 56.3% |
| Q10A | 78.7% |
| S104N | 16.3% |
| D144S | 13.3% |

For quick reference, copied from above (series 1):
| target | remaining activity [%] |
| --- | --- |
| ARAF (Homo sapiens, UniProt P10398) | 74.1 |
| RPS6KA2 (Homo sapiens, UniProt Q15349) | 105 |
| FRK (Homo sapiens, UniProt P42685) | 102 |
| NEK1 (Homo sapiens, UniProt Q96PY6) | 105 |
| EPHA3 (Homo sapiens, UniProt P29320) | 99.8 |
